Experimental data collected from several papers.
Each numbered part is a random draw from the data of one study; scales do not carry over between parts. Positions count from the first letter of the parent shown.

Set 1 — target: CCNA1, cyclin fold, Cln2 fusion (human); method: yeast growth competition, sequencing; medium: yeast; notes: weak parent motif; relative to: not given; reading: higher = stronger binding
Parent: SAMHD1 docking peptide (human); ASKSRVQLFKDDP
| Variant | normalised enrichment score |
| --- | --- |
| ASKSRVQLFKDQP [D12Q] | 0.00181 |
| ASKSRVQQFKDDP [L8Q] | 0.272 |
| ASKSRKQLFKDDP [V6K] | 0.549 |
| ALKSRVQLFKDDP [S2L] | 0.285 |
| ASKSKVQLFKDDP [R5K] | 0.356 |
| ASSSRVQLFKDDP [K3S] | 0.0637 |
| ASKSRVQLFSDDP [K10S] | 0.482 |
| ASKSRVQLFKSDP [D11S] | 0.388 |
| ASKSRVRLFKDDP [Q7R] | 0.834 |

Set 2 — method: RNA Bind-n-Seq; form: RNA; medium: in vitro; tested at: 1 µM; notes: whole 134-nt RNA, ends assumed; added: 150 mM KCl; relative to: input library; reading: higher = stronger binding
Target: Ras GTPase-activating protein-binding protein 1, C-terminal RGG region (G3BP1, Homo sapiens, UniProt Q13283)
Chain of UniProt Q13283 (whole entry, looked up): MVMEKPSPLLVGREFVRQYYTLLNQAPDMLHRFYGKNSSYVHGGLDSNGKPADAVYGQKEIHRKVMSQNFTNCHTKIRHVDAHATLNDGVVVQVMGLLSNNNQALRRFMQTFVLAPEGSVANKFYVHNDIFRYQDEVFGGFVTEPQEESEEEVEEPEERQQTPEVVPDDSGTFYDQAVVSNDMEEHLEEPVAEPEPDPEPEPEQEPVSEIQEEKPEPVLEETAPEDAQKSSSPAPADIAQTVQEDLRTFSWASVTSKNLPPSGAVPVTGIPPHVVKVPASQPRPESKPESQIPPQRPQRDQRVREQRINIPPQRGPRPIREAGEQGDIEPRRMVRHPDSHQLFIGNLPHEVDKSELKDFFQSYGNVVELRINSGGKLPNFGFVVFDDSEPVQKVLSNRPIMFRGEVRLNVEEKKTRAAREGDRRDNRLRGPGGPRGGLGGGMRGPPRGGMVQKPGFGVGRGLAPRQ
| Oligonucleotide | log2 enrichment |
| --- | --- |
| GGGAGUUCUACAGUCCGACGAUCCCUGUGCUACACAUCGUAUGUACCGAAUCGGGUUUUUGGGUUUUUUUGGGUUUUUUUGGGAAAGUAUUAUGUUACGCCGUUCGGAUCUGCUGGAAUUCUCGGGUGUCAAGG | -1.5 |
| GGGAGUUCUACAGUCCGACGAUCUGGCCCUGGUGGCAUGCGGGGAGGAAGAGGUGGCCUCAUGGAUCGUGGUGGUCCCGGUGGAAGGUUCAGAGGUGGCCGUGGUGGAGACAGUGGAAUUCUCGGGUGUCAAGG | 1.88 |
| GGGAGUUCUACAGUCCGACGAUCAAGUCCUGUGCUACACAUCGUAUGUACCGAAUCGGGGUGGGGAAAGGGGAAAGGGGAAAGUAUUAUGUUACGCCGUUCGGAUCUGCACUUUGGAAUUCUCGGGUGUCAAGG | 3.2 |
| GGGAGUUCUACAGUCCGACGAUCCACAGACAACACGCACCCACACAGACACAGAGGGAAGGGGUUGGGAUGGGGACAGGCUGCACAGCAGGGCGGGGUAGGACCCCAGCCCCUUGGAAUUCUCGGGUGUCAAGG | -0.637 |
| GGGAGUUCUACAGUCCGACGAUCGUCCUGUGCUACACAUCGUAUGUACCGAAUCGGGAAAAAGGGAAAAAAAGGGUUUGGGAAAGUAUUAUGUUACGCCGUUCGGAUCUGCACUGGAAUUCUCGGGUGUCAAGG | -0.573 |
| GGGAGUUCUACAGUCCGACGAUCUCAAGUCCUGUGCUACACAUCGUAUGUACCGAAUCGGGAGGGAAAGGGAAAGGGAAAGUAUUAUGUUACGCCGUUCGGAUCUGCACUUCCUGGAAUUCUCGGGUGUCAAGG | 1.66 |

Set 3 — method: universal PBM; form: double-stranded DNA, one strand shown; medium: in vitro; tested at: 600 nM; reading: higher = stronger binding
Target: Sal-like protein 4, full length isoform A (SALL4, Homo sapiens, UniProt Q9UJQ4, residues 1-1053)
Chain of UniProt Q9UJQ4 (whole entry, looked up): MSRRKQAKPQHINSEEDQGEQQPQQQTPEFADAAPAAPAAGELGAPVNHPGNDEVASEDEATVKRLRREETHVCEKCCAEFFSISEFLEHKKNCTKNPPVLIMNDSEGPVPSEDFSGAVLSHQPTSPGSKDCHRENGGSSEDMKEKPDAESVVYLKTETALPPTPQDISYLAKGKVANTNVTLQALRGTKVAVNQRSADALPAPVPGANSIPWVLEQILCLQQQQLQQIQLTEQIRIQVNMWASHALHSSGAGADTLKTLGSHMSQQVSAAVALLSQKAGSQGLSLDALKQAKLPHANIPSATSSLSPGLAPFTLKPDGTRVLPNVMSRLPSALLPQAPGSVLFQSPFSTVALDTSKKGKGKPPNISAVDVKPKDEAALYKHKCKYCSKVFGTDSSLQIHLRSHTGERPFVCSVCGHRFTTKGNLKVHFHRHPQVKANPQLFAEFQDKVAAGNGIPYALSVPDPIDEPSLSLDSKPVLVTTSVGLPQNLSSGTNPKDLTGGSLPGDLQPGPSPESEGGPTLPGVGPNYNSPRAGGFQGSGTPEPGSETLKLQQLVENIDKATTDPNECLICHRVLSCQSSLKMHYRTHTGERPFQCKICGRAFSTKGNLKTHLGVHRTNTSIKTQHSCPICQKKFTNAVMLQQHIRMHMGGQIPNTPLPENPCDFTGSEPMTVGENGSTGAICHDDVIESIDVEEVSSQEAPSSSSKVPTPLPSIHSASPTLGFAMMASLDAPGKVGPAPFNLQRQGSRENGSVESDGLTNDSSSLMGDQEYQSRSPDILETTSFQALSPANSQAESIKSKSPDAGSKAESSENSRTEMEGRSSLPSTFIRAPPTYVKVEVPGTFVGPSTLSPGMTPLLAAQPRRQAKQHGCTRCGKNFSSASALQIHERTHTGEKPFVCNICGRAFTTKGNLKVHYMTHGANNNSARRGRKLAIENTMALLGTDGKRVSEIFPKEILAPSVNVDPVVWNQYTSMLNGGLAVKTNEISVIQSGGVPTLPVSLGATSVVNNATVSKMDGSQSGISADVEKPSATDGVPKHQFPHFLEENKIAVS
Notes: 8-mer, flanks averaged, mean of replicates
| Oligonucleotide | E-score |
| --- | --- |
| CTGTAAGC | -0.0284 |
| AAATTGCG | 0.237 |
| CACGGCAG | -0.191 |
| AACCTATC | -0.00211 |
| TTCGCAAA | 0.196 |
| CTCAATGA | -0.023 |
| CGAGCATA | 0.0426 |
| CAACTTTC | 0.162 |
| GCTTTCAC | -0.0687 |
| CATAAAAG | 0.316 |
| CAAGAGGG | -0.0369 |
| CGTCTTGC | -0.0682 |
| GCTGCCAA | -0.186 |
| ACTACGCC | -0.179 |
| ATGGTAGC | -0.113 |
| AGGAAAAA | 0.277 |
| CCGAATTA | 0.138 |

Set 4 — method: RNA Bind-n-Seq; form: RNA; medium: in vitro; tested at: 365 nM; relative to: no-protein control; reading: higher = stronger binding
Target: RNA binding protein fox-1 homolog 2, RRM domain, GST-SBP tag (RBFOX2, Homo sapiens, UniProt O43251-10, residues 100-194)
Notes: natural RNA segment, single round, ends assumed
Residues (chain): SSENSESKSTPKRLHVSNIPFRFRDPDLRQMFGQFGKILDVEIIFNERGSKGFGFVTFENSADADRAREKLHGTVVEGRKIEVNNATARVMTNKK
| Oligonucleotide | RBNS enrichment (R) |
| --- | --- |
| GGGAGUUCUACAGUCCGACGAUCCAAUGUCUUGAAGUUUUAAGUGUUUUGACCAGUGUGUAAUGUUAAAUUCAGAGGCUACAGUAUAUCUACAUUCAUGUGGUGUUCAUUGGUAAUUUCAGUAUAUGUAAUGUUGGAAUUCUCGGGUGCCAA | 1.25 |
| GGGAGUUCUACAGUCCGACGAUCUUAAUAUAGAUUGAACCAGAAAGGUGACCCCUAGCUGUUGACUUAUUGUCACCCUAAAAAAAAAAAAGGCACAAGGAAAGCUGCCACCUCCCCACCCCUCCUCUUCCUUUUGGAAUUCUCGGGUGCCAA | 0.276 |
| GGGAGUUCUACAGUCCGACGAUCAAAAAAGAAUUUUGUAUGUUGUGGCAUUUAAUCAUUUCAUGUUCAGUAACAAAUGAUAUUUUUGUUAAAUGGACGAGGAGUCCAUUCACGCACGCUCUACUUUGAUAUUAUGGAAUUCUCGGGUGCCAA | 0.965 |
| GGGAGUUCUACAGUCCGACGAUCUUUAAUUAUCCUAAUGUUAUUUCACUUGCCCUUAUGCUUUAUUUUAGAGUCCCAGGGACAACUGGAUGAAACAUUACGUCUGUAGUCAUCUUAUUUGAGAUGGGGGUGGGUGGAAUUCUCGGGUGCCAA | 0.381 |
| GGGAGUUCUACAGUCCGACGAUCUUUCUUUAGCUGCUGUGUUUAUUCUCAUUCCUCACACAUGCCUUUAAGUGCAUUGGACUCCAGGAGAGCCAUUUGGGGUUUCUCUAGCUAAACAAUAAAUGUACCUGUCUUGGAAUUCUCGGGUGCCAA | 0.486 |
| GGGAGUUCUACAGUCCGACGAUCAAAAGAGAGAAAGUCCUUGCUCCCGGGAACUCCCACUCUCUCAGGAACCACAGACCACCAAUGUUGAAGUCAGAAUGGAAAGUGUGCCAGCAAGGAUUUCUGAACACUAAUGGAAUUCUCGGGUGCCAA | 0.836 |
| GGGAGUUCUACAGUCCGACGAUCAAUACUAUCAAAAACUAAGGCUAAACAUUCCUUGUGUAUCUUUAAGCAUGCUUCUCCUGAAAUUUAACUACAUUAGUAGUUGACAUUUGUAUACAUAUAUCCUAAUACAAUGGAAUUCUCGGGUGCCAA | 2.91 |
| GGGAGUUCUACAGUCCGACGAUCCAGUGUCUGGCUCCCUGAUAGGAGGGAGGUCCCAGGGUAGGAGCGGGCUGGCAGGCGCUGACUGCCUCAGCCCAUGUGCCCUGCCGGCCAGGGCGUGGCCUCCCCAAGGCUGGAAUUCUCGGGUGCCAA | 0.323 |

Mixed results
| Molecule | target | assay | system | setting | scale | measurement | result |
| --- | --- | --- | --- | --- | --- | --- | --- |
| PhoQ, residues 284 288 289 292 302 303 SLSVQF | PhoP, residues 12 14 15 18 19 AYFRS (Escherichia coli, UniProt P23836) | Sort-seq, item: YFP reporter | E. coli | PhoQ-PhoP variant library, added: 10 µM Mg2+ | relative to: high Mg2+ state, higher = stronger signaling | fold induction | 0.985 |

A few entries again (set 4):
| Oligonucleotide | RBNS enrichment (R) |
| --- | --- |
| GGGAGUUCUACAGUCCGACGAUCCAAUGUCUUGAAGUUUUAAGUGUUUUGACCAGUGUGUAAUGUUAAAUUCAGAGGCUACAGUAUAUCUACAUUCAUGUGGUGUUCAUUGGUAAUUUCAGUAUAUGUAAUGUUGGAAUUCUCGGGUGCCAA | 1.25 |
| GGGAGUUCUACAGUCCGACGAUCAAAAGAGAGAAAGUCCUUGCUCCCGGGAACUCCCACUCUCUCAGGAACCACAGACCACCAAUGUUGAAGUCAGAAUGGAAAGUGUGCCAGCAAGGAUUUCUGAACACUAAUGGAAUUCUCGGGUGCCAA | 0.836 |
| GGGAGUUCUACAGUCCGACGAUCAAAAAAGAAUUUUGUAUGUUGUGGCAUUUAAUCAUUUCAUGUUCAGUAACAAAUGAUAUUUUUGUUAAAUGGACGAGGAGUCCAUUCACGCACGCUCUACUUUGAUAUUAUGGAAUUCUCGGGUGCCAA | 0.965 |
| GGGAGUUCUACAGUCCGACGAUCCAGUGUCUGGCUCCCUGAUAGGAGGGAGGUCCCAGGGUAGGAGCGGGCUGGCAGGCGCUGACUGCCUCAGCCCAUGUGCCCUGCCGGCCAGGGCGUGGCCUCCCCAAGGCUGGAAUUCUCGGGUGCCAA | 0.323 |
| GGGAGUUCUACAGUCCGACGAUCUUAAUAUAGAUUGAACCAGAAAGGUGACCCCUAGCUGUUGACUUAUUGUCACCCUAAAAAAAAAAAAGGCACAAGGAAAGCUGCCACCUCCCCACCCCUCCUCUUCCUUUUGGAAUUCUCGGGUGCCAA | 0.276 |
| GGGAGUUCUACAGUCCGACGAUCAAUACUAUCAAAAACUAAGGCUAAACAUUCCUUGUGUAUCUUUAAGCAUGCUUCUCCUGAAAUUUAACUACAUUAGUAGUUGACAUUUGUAUACAUAUAUCCUAAUACAAUGGAAUUCUCGGGUGCCAA | 2.91 |
